Measurements gathered from unrelated publications.
A part holds a random share of what one study measured.

Set 1
Target: Interferon regulatory factor 7, full length, phosphomimetic (IRF7, Homo sapiens, UniProt Q92985, residues 1-503, S101K/S471D/S472D/S475D/S476D/S477D/S483D/S484D/S487D)
Chain of UniProt Q92985 (whole entry, unmodified, looked up): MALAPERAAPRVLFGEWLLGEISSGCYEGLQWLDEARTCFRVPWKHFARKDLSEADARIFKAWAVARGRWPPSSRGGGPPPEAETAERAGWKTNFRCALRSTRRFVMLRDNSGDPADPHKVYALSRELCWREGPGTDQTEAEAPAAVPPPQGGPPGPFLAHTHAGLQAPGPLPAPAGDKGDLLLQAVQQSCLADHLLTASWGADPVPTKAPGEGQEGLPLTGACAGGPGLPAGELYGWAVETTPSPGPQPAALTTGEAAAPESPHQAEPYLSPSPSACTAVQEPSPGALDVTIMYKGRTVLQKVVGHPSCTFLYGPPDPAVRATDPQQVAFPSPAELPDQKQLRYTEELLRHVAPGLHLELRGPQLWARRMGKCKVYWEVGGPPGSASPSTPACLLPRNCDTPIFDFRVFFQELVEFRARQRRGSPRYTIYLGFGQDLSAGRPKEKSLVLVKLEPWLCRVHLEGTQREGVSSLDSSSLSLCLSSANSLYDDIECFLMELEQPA
Method: protein-binding microarray
Molecule type: double-stranded DNA, one strand shown
Medium: in vitro
Concentration: 250 nM
Notes: 60-bp whole probe
Added: salmon DNA 0.4 mg/ml
Reference: random background probes
Reading: higher = stronger binding
Shared flanks, not repeated: GCCTAGCACT … GTGCTAGGTCTTGATTCGCTTGACGCTGCTG
The log fluorescence of `CATTTCTCTCTGTGACACT` is reported as 2.08 z-score.
For `CACATCTAGTTCTGCTACT`, the log fluorescence was 0.272 z-score.
With `CACTTCTGGTCTTCTGACT` the log fluorescence was 0.201 z-score.
For `TAGGTTTCCTACTGCTTTA`, the log fluorescence was 0.942 z-score.
The log fluorescence of `CAGTCACCCATCTCAAACT` is reported as -0.131 z-score.

Set 2
Target: Histone acetyltransferase KAT6A, both winged helices, GST fusion (KAT6A, Homo sapiens, UniProt Q92794, residues 1-181)
Method: protein binding microarray
Molecule type: double-stranded DNA, one strand shown
Medium: in vitro
Concentration: not given
Notes: 8-mer, flanks averaged, mean of 2 arrays, mostly near background
Reference: not given
Reading: higher = stronger binding
Target sequence (chain): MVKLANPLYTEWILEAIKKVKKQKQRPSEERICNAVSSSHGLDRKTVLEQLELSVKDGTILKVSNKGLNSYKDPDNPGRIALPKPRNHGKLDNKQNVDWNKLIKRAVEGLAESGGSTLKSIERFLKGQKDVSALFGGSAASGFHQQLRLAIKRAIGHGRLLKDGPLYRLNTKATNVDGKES
The E-score of `ACAGGTTC` is reported as -0.116.
With `ATTCGGGG` the E-score was 0.0764.
`AATCCTAA` has an E-score of -0.0643.
With `AAACGGGA` the E-score was 0.225.

Set 3
Target: RNA binding protein fox-1 homolog 2, RRM domain, GST-SBP tag (RBFOX2, Homo sapiens, UniProt O43251-10, residues 100-194)
Method: RNA Bind-n-Seq
Molecule type: RNA
Medium: in vitro
Concentration: 365 nM
Notes: natural RNA segment, single round, ends assumed
Reference: no-protein control
Reading: higher = stronger binding
For `GGGAGUUCUACAGUCCGACGAUCCACUGCCUUCACCUUCACCUUCAUCCAUGUCCAACCCCCGACUUCAUCCCAAAGGACAGCCGCCUGGAGAUGACUUGAGGCCUUACUUAAACCCAGCUCCCUUCUUCCCUUGGAAUUCUCGGGUGCCAA`, “RBNS enrichment (R)” read 0.471.
Under “RBNS enrichment (R)”, `GGGAGUUCUACAGUCCGACGAUCUUAAAAACUUGGAUUAACCACUCAAUGUCCACUUUCUUUGACUUACAGUAUAACCAUGUAGCCAAUUGUGGCCCACUAAAAUCUACAGAAGUUAAUGUGGGUCACCAUUUUGGAAUUCUCGGGUGCCAA` is recorded as 0.496.
For `GGGAGUUCUACAGUCCGACGAUCAAACCCGUCAUGACGCGGCUGCUUCGGAAGCAGACAUCUGGGGACACAGCCUCAGUACCCAGUCUUUUCCCUAGUUCCUGAAACUUUCCUAGGACCUUAAGAGAAUAGUAUGGAAUUCUCGGGUGCCAA`, “RBNS enrichment (R)” read 0.389.
Under “RBNS enrichment (R)”, `GGGAGUUCUACAGUCCGACGAUCGCAAGUGGCUCUCCCCAUUACCUUCUCAAGACCUCAGUGGGAGCACCAGCCAAUGGUACCAUCGGCUGGGCUGCCAGGUACCCUGGGCCUGGCGCUGCAGACCUGAGCUGUGGAAUUCUCGGGUGCCAA` is recorded as 0.425.

Mixed results
With `PhoQ, residues 284 288 289 292 302 303 TNASYF` the fold induction was 9.18 (PhoP, residues 12 14 15 18 19 IQSYL (Escherichia coli, UniProt P23836); Sort-seq, item: YFP reporter; E. coli; PhoQ-PhoP variant library, added: 10 µM Mg2+; reference: high Mg2+ state, higher = stronger signaling).

Excerpt of the above (set 3):
Under “RBNS enrichment (R)”, `GGGAGUUCUACAGUCCGACGAUCUUAAAAACUUGGAUUAACCACUCAAUGUCCACUUUCUUUGACUUACAGUAUAACCAUGUAGCCAAUUGUGGCCCACUAAAAUCUACAGAAGUUAAUGUGGGUCACCAUUUUGGAAUUCUCGGGUGCCAA` is recorded as 0.496.
For `GGGAGUUCUACAGUCCGACGAUCAAACCCGUCAUGACGCGGCUGCUUCGGAAGCAGACAUCUGGGGACACAGCCUCAGUACCCAGUCUUUUCCCUAGUUCCUGAAACUUUCCUAGGACCUUAAGAGAAUAGUAUGGAAUUCUCGGGUGCCAA`, “RBNS enrichment (R)” read 0.389.
